Published values pooled from the literature.
A part holds a random share of what one study measured. Changes are numbered by the printed parent chain.

Series 1
Target: CEP164, C-terminal peptide (human)
Technique: DHFR complementation, deep sequencing
Medium: yeast
Notes: single substitutions, model-inferred values
Relative to: wild type
Direction: higher = weaker binding
Measurement: binding free energy change
Parent: PDZK1, PDZ domain 2 (human); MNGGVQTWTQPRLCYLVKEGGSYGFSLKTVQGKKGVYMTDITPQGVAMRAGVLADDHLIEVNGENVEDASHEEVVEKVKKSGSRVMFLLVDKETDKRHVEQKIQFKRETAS; partner HNRVKVYRF
K80F: 0.761 kcal/mol
V46W: 0.988 kcal/mol
D40S: 0.711 kcal/mol
A110D: -0.0476 kcal/mol
Q6C: -0.031 kcal/mol
I41Y: 1.17 kcal/mol
Q6E: -0.0245 kcal/mol
V90A: -0.233 kcal/mol
L53G: 0.596 kcal/mol
Y15L: 0.0892 kcal/mol
D91N: -0.162 kcal/mol
K34Q: 0.209 kcal/mol

Series 2
Target: Histone acetyltransferase KAT6A, winged helix 1, GST fusion (KAT6A, Homo sapiens, UniProt Q92794, residues 1-85)
Technique: protein binding microarray
Molecule type: double-stranded DNA, one strand shown
Medium: in vitro
Tested at: not given
Notes: 8-mer, flanks averaged, mean of 2 arrays, mostly near background
Relative to: not given
Direction: higher = stronger binding
Measurement: E-score
Construct (chain): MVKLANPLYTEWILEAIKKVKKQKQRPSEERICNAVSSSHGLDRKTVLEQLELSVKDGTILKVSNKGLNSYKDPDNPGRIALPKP
CCAGTCAC: 0.0442
ACTTATTG: -0.182
ACGCTAGA: 0.0711
GTTCGCCA: -0.108
CAAGAGGA: -0.194
CCATTAAA: -0.0394
GTCCGCGA: 0.241
AGTCCTGA: -0.214
CCTGTCTA: -0.18
CCGAATAG: -0.0798
ACTATCCT: -0.176
CGCTGCCA: 0.0828
ACATCCAG: -0.132
CTCCGATA: 0.0621
AGTCAACC: -0.151
ACAATGCA: -0.171
TAGCACAA: -0.188
ACCATACC: -0.0368
CAATCTGG: -0.242
TCGCACAA: -0.0596
ACCTGGCG: 0.171
TACAGGAA: -0.00167
AGCCCCGC: 0.232

Series 3
Target: Ras GTPase-activating protein-binding protein 1, C-terminal RGG region (G3BP1, Homo sapiens, UniProt Q13283)
Sequence of UniProt Q13283 (whole entry, looked up): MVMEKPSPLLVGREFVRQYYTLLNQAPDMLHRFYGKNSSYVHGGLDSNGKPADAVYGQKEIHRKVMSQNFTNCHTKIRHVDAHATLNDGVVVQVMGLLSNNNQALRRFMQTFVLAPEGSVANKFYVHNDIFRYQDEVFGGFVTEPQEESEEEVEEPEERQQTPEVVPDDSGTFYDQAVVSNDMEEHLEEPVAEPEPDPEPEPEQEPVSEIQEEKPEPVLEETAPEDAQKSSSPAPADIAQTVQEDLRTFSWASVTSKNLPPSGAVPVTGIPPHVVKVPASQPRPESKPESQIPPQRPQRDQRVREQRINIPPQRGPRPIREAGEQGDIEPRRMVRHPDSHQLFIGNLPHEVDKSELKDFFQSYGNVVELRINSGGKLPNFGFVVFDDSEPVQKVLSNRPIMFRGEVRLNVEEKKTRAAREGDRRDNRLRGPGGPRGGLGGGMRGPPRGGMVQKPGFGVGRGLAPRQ
Technique: RNA Bind-n-Seq
Molecule type: RNA
Medium: in vitro
Tested at: 1 µM
Notes: whole 134-nt RNA, ends assumed
With: 150 mM KCl
Relative to: input library
Direction: higher = stronger binding
Measurement: log2 enrichment
Shared flanks, not repeated: GGGAGUUCUACAGUCCGACGAUC … UGGAAUUCUCGGGUGUCAAGG
UCAAGUCCUGUGCUACACAUCGUAUGUACCGAAUCGGGGUGGGGAGGGGAGGGGAAAGUAUUAUGUUACGCCGUUCGGAUCUGCACUUCC: 3.24
CACAGACAACACGCACCCACACAGACACAGAGGGAAGGGGUUGGGAUGGGGACACGGUGCACAGCAGGGCGGGGUAGGACCCCAGCCCCU: -0.511
AAGUCCUGUGCUACACAUCGUAUGUACCGAAUCGGAAAAGGGGAAAAGGAAAAGGGAAAGUAUUAUGUUACGCCGUUCGGAUCUGCACUU: -1.51
CACAGACAACACGCACUCACACAGACACAGAGGGAAGGGGUUGGGAUGGGGACAGGGUGCACAGCAGGGCGGGGUAGGACCCCAGCCCCU: -0.253
CUCAAGUCCUGUGCUACACAUCGUAUGUACCGAAUCGGGGCGGGCGGGCGGGGAAAGUAUUAUGUUACGCCGUUCGGAUCUGCACUUCCA: 2.62
CCUGUGCUACACAUCGUAUGUACCGAAUCGGGGCCCCCCGGGGCCCCCCGGGGCCCCCCGGAAAGUAUUAUGUUACGCCGUUCGGAUCUG: -1.91
UGUGCUACACAUCGUAUGUACCGAAUCGGGGCCCCCCCGGGCCCCCCCGGGGCCCCCCCGGGAAAGUAUUAUGUUACGCCGUUCGGAUCU: -2.51
UCAAGUCCUGUGCUACACAUCGUAUGUACCGAAUCGGGCCGGGGCCGGGCCGGGGAAAGUAUUAUGUUACGCCGUUCGGAUCUGCACUUC: -0.0584
CUCAAGUCCUGUGCUACACAUCGUAUGUACCGAAUCGGAAAAAGGUUUGGUGGAAAGUAUUAUGUUACGCCGUUCGGAUCUGCACUUCCA: -1.23
UGGGAGGUGGAUUUUGUUUAUUUUUUUAGCUCAUUUCCAGGGGUGGGAAUUUUUUUUUAAAAUGUGUCAUGAAUAAAGUUGUUUUUGAAA: 3.11
CUCAAGUCCUGUGCUACACAUCGUAUGUACCGAAUCGGAAAGGAAAAAGGUGGAAAGUAUUAUGUUACGCCGUUCGGAUCUGCACUUCCA: -1.3
CAAGUCCUGUGCUACACAUCGUAUGUACCGAAUCGGGAGGGUUUUUUUGGGUGGGAAAGUAUUAUGUUACGCCGUUCGGAUCUGCACUUC: 0.452
CCACCAUGACCCCUGACGGUCUGGCUGUGACCCCAACGCCGGUGCCCGUGGUCGGGAGCCAGAUGACCAGACAAGCCCGGCGCCUCUACG: -0.792
AAGUCCUGUGCUACACAUCGUAUGUACCGAAUCGGGGUGGGGUUUGGGGUUUGGGGAAAGUAUUAUGUUACGCCGUUCGGAUCUGCACUU: 2.51

Series 4
Target: CCNB3, cyclin fold, Cln2 fusion (human)
Technique: yeast growth competition, sequencing
Medium: yeast
Notes: strong parent motif
Relative to: not given
Direction: higher = stronger binding
Measurement: normalised enrichment score
Parent: BRCA2 docking peptide (human); PSIKRNLLNEFDR
N9H: 1.53
D12E: 1.32
N6Q: 0.103
I3T: -0.138
I3P: 1.03
D12Y: 0.9
R5F: 0.408
P1Y: 1.96
R5M: 0.446
E10D: 1.39
I3N: 0.0348
N6S: 1.11
E10Q: -0.0736
E10C: -0.0829
D12R: 0.527
F11C: -0.21
K4W: 0.0013
I3M: 0.0516
N6A: 0.384
P1D: 0.899
K4P: 0.37
D12A: 1.44
F11P: -0.218
L7M: 0.0374
L8F: 0.729

Series 5
Target: RNA binding protein fox-1 homolog 2, RRM domain, GST-SBP tag (RBFOX2, Homo sapiens, UniProt O43251-10, residues 100-194)
Technique: RNA Bind-n-Seq
Molecule type: RNA
Medium: in vitro
Tested at: 365 nM
Notes: natural RNA segment, single round, ends assumed
Relative to: no-protein control
Direction: higher = stronger binding
Measurement: RBNS enrichment (R)
Shared flanks, not repeated: GGGAGUUCUACAGUCCGACGAUC … UGGAAUUCUCGGGUGCCAA
Residues (chain): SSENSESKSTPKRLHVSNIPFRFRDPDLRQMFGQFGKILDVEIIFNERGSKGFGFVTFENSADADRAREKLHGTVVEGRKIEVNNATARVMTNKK
UUACAUUAUGUUCCUUUGGAUAAAUUGUGAUUUGACAACUGAUUUCAAUAAAAAUAUUUGCUUCACUAUAUUCACUGUUUUUUUAUUAAAUACUGAGGGGCCUGGAUCAC: 0.672
AAACUUACUUUCUCUAAAAUUCCUGCAGCAGACACCAGAGGCACCCCAGACCUAGACCUCCCUUCUAAAAGCCAGAACCAGGAAGGCUUGCAUAAAGAAGGUGUGGCCUC: 0.637
UUUUGACUUCAGGCCUGAGAAAAACUUCAGGUUUCGAAACAUGACAUCUCUUCCUUUUCCAGAUCCCAUGCUUUGAAAAAUAUUUAUAGACAGUUCCAGGUCUCAGCUUC: 0.415
GGGAUUCAUAAGGAGAAAACAGCGUCUGGCAGGCAUGGCAGAAAGUGCUGUUAAGCAUUAGCUGGCUUCCUUGUUCAUUGUUCCAAGAGAUGGGUGUGGAGAGACGGCUU: 0.354
AUGUUCCCUUAAAACUCAGACUUCAACACAUCAGUUAAAUUUGUACUUUAGUUGUGGGUGUUAGAGUUUUUGUGUCAUGACUCAGUGUGGUUCACAUUCCUAGUGAGAAG: 0.337
AGGGCAUGGUCUCAUCUCCGCAUCAGGAAUUCACCUGGAGGUUGAAAAGAGAAAAGAAAAAGCACCAGCUCUUGUGUGUUUGUGACCUGAUGAAACACUUCCUGGCGUCU: 0.76
CACAGUGUUAGUGCUGGUCAGAGAGACCUCAUCCUGCUCUUUUGUGAUGAACAUAUUCAUGACGCGUGGAAGUCAGUACGAUCAAGUUGUUGACUGUGAUUAGAUCACAC: 0.433
AUAUUUAUUUGACAGCUAUGAGGAACUAAAUUUAGAGGUUUCUCCAAUCUUAUAUGAAUAUUUUUCAUAAAAUAGUUGUGAUUAUAUUUUUACAUCUUUUAUGCACCAAA: 0.731
UAGUAAGAACUAAGCAGGGGGCCACAUGCUCUCAAUGGAGACAAUAAAGUGUUGUCUUUUUCUUAUUUUUAUGUAGGUAUAUUUCCUAUAUGGGCAUUUUUGGGUAGAUU: 0.777
AUGACAUUUUUUAUCUGUAUACUUUUUUGAUGUGAUUGUUUUUUAACAUGCUAAAAGUAAUAAGUAUUUUUGUGUCUUUUAUGUGCAUUUUUUUCAUACGGCAAAAAUGG: 1.36
CCUAUCUCGCCCAGUGAAAUCACAGGAAGUUUAACGUAUCUCAGAGGCCUUUGAGUUCCCACUCAAUACCUCUCCCUCUUUACAGAAGAGAGGGGUGGGGGGAGCCUUGG: 0.292
GUUGGAGCCCCUGCAUCCCCUGGGUCCAGCCCCCUCUGCAUUUACACAGAUUUGAGUCAGAACUGGAAAGUGUCCCCCACCCCCACCACCCUCGAGCGGGGUUCCCCUCA: 1.21

Series 6
Target: ABI1, truncated, D143A, DHFR fusion (Arabidopsis thaliana)
Technique: DHFR PCA, deep sequencing
Medium: yeast
Notes: methotrexate growth selection, single substitutions
With: (+)-ABA 0.39 µM
Relative to: wild-type fitted maximum
Direction: higher = stronger binding
Measurement: relative binding score
Parent: PYL1, truncated, DHFR fusion (Arabidopsis thaliana); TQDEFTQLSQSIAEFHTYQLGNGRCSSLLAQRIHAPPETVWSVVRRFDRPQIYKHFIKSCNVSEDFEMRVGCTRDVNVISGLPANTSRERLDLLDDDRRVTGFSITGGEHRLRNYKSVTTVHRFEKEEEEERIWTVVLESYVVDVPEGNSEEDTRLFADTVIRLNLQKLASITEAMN
D75N: 46.7%
R46Y: -33.2%
V143S: -11.4%
D144R: -14.9%
R98I: 4.52%
E38L: -5.67%
I12S: -3.93%
I133C: 60.2%
V62H: 3.27%
T101Q: -10.6%
Y18R: -4.28%
T160M: 14.4%
S150L: 0.762%
T135I: -13.7%
V100M: 19.7%

Repeated from above (series 5):
CACAGUGUUAGUGCUGGUCAGAGAGACCUCAUCCUGCUCUUUUGUGAUGAACAUAUUCAUGACGCGUGGAAGUCAGUACGAUCAAGUUGUUGACUGUGAUUAGAUCACAC: 0.433
UUUUGACUUCAGGCCUGAGAAAAACUUCAGGUUUCGAAACAUGACAUCUCUUCCUUUUCCAGAUCCCAUGCUUUGAAAAAUAUUUAUAGACAGUUCCAGGUCUCAGCUUC: 0.415
AUGUUCCCUUAAAACUCAGACUUCAACACAUCAGUUAAAUUUGUACUUUAGUUGUGGGUGUUAGAGUUUUUGUGUCAUGACUCAGUGUGGUUCACAUUCCUAGUGAGAAG: 0.337
CCUAUCUCGCCCAGUGAAAUCACAGGAAGUUUAACGUAUCUCAGAGGCCUUUGAGUUCCCACUCAAUACCUCUCCCUCUUUACAGAAGAGAGGGGUGGGGGGAGCCUUGG: 0.292
AAACUUACUUUCUCUAAAAUUCCUGCAGCAGACACCAGAGGCACCCCAGACCUAGACCUCCCUUCUAAAAGCCAGAACCAGGAAGGCUUGCAUAAAGAAGGUGUGGCCUC: 0.637
AUAUUUAUUUGACAGCUAUGAGGAACUAAAUUUAGAGGUUUCUCCAAUCUUAUAUGAAUAUUUUUCAUAAAAUAGUUGUGAUUAUAUUUUUACAUCUUUUAUGCACCAAA: 0.731
GGGAUUCAUAAGGAGAAAACAGCGUCUGGCAGGCAUGGCAGAAAGUGCUGUUAAGCAUUAGCUGGCUUCCUUGUUCAUUGUUCCAAGAGAUGGGUGUGGAGAGACGGCUU: 0.354
GUUGGAGCCCCUGCAUCCCCUGGGUCCAGCCCCCUCUGCAUUUACACAGAUUUGAGUCAGAACUGGAAAGUGUCCCCCACCCCCACCACCCUCGAGCGGGGUUCCCCUCA: 1.21
AGGGCAUGGUCUCAUCUCCGCAUCAGGAAUUCACCUGGAGGUUGAAAAGAGAAAAGAAAAAGCACCAGCUCUUGUGUGUUUGUGACCUGAUGAAACACUUCCUGGCGUCU: 0.76
AUGACAUUUUUUAUCUGUAUACUUUUUUGAUGUGAUUGUUUUUUAACAUGCUAAAAGUAAUAAGUAUUUUUGUGUCUUUUAUGUGCAUUUUUUUCAUACGGCAAAAAUGG: 1.36
